{"data": "Assay results pooled from the literature", "target": "Cytochrome P450 3A4 (CYP3A4, Homo sapiens, UniProt P08684)", "note": "Protocols differ between the studies behind these lines. pIC50: −log10 of the molar value.", "UniProt P08684, sequence (whole entry, looked up)": "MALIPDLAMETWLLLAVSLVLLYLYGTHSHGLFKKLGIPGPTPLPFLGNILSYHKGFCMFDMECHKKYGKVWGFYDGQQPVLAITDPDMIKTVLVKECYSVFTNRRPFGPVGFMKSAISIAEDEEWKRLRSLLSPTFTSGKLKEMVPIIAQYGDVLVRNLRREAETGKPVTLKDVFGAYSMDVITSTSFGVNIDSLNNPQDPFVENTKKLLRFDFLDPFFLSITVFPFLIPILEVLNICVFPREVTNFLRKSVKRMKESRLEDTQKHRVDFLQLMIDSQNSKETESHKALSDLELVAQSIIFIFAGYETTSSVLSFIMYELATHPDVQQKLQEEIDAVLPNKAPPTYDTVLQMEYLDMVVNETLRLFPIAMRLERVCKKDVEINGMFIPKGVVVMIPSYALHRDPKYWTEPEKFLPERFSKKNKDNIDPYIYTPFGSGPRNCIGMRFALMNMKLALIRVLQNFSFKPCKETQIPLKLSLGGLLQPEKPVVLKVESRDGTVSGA"}
{"assay": "enzyme activity, inhibitor", "pIC50": 5.09, "Structure (SMILES)": "CC(C)(C)n1ncc2c(=O)n(Cc3cccc(F)c3)c(NCc3ccc(F)cn3)nc21"}
{"assay": "enzyme activity, inhibitor", "pIC50": "< 4.70", "Structure (SMILES)": "CCC1(CC)CC(=O)N(C2c3cc(C(=O)NC4c5ccccc5CC4O)ccc3OC2(C)COC)C(=N)N1 (centres unmarked)"}
{"assay": "enzyme activity, inhibitor", "pIC50": "< 5.00", "Structure (SMILES)": "N=C(N)SCc1ccccc1CSC(=N)N"}
{"assay": "enzyme activity, inhibitor", "pIC50": "< 4.70", "Structure (SMILES)": "CCC1(CC)CC(=O)N(C2CCOc3ccc(C(=O)NC4CC(C)(C)Oc5ccccc54)cc32)C(=N)N1 (centres unmarked)"}
{"test system": "pooled human liver microsomes", "conditions": "5 min", "pIC50": 4.98, "Structure (SMILES)": "NC(=O)c1ccc(C(=O)NOCc2ccc(Sc3cccc(Cl)c3)c(C(F)(F)F)c2)cc1"}
{"assay": "enzyme activity, inhibitor, fluorescence", "conditions": "pH 7.4, with: 7-benzyloxy-4-trifluoromethylcoumarin", "pIC50": "< 5.00", "Structure (SMILES)": "OCC1OC(n2cnc3c(NCc4ccc(Br)s4)ncnc32)C(O)C1O (centres unmarked)"}
{"assay": "enzyme activity, inhibitor", "conditions": "10 (unit not given)", "pIC50": 4.42, "Structure (SMILES)": "O=C(NC1CCC(F)(F)CC1)C(c1cncnc1)N(C(=O)C(F)Cl)c1ccc(OC(F)(F)F)cc1 (centres unmarked)"}
{"assay": "enzyme activity, inhibitor", "conditions": "pH 7.4", "pIC50": "< 4.30", "Structure (SMILES)": "C=C(NC(=O)c1csc(-c2nc3c(cc2O)-c2nc(cs2)C(=O)NC(C(C)O)C(=O)NC(=C(C)OC)c2nc(cs2)C(=O)NC2c4nc(cs4)C(=O)NC(COC(=O)c4c5c6c(cccc6n4O)COC(=O)C(OC4CC(C)(O)C(N(C)C)C(C)O4)C2OC5)c2nc-3cs2)n1)C(N)=O (centres unmarked)"}
{"note": "Repeated from above:"}
{"assay": "enzyme activity, inhibitor", "pIC50": 5.09, "Structure (SMILES)": "CC(C)(C)n1ncc2c(=O)n(Cc3cccc(F)c3)c(NCc3ccc(F)cn3)nc21"}
